Measurements from different studies.
Each line is one published result; not all experiments were run side by side. Numbers after ± are the reported error.
lasR: Transcriptional activator protein LasR (lasR, Pseudomonas aeruginosa, UniProt P25084)
blaOXA-33: Beta-lactamase (blaOXA-33, Acinetobacter baumannii, UniProt Q8RLA6)
HDAC6: Protein deacetylase HDAC6 (HDAC6, Homo sapiens, UniProt Q9UBN7)
MAPK8: Mitogen-activated protein kinase 8 (MAPK8, Homo sapiens, UniProt P45983)
Orco: Orco (Drosophila melanogaster, UniProt Q9VNB5)
FURIN: Furin (FURIN, Homo sapiens, UniProt P09958)
Oprm1: Mu-type opioid receptor (Oprm1, Mus musculus, UniProt P42866)

Protein sequences, listed by entry. Tags and fused reporters are not part of them. Residues count along the entry.
UniProt P25084, whole entry: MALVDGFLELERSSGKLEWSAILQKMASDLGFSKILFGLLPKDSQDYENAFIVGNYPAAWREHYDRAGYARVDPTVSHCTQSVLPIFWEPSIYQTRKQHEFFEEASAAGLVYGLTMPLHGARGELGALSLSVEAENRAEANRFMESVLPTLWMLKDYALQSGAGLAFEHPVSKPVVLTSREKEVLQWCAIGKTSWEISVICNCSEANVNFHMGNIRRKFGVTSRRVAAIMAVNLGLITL
UniProt P25084, 1-173 limits assumed: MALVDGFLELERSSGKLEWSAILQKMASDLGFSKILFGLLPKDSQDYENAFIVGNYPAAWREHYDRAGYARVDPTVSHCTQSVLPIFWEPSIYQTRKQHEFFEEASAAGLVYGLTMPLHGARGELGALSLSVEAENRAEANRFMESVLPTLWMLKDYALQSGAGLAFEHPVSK
UniProt Q8RLA6, 21-275 limits assumed: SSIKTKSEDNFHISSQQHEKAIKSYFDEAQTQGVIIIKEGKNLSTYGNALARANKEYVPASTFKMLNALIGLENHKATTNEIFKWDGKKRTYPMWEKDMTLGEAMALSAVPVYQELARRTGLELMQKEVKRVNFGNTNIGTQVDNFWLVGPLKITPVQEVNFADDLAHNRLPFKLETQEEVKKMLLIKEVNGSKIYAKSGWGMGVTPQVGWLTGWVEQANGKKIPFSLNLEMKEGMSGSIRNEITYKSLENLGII
UniProt Q9UBN7, whole entry: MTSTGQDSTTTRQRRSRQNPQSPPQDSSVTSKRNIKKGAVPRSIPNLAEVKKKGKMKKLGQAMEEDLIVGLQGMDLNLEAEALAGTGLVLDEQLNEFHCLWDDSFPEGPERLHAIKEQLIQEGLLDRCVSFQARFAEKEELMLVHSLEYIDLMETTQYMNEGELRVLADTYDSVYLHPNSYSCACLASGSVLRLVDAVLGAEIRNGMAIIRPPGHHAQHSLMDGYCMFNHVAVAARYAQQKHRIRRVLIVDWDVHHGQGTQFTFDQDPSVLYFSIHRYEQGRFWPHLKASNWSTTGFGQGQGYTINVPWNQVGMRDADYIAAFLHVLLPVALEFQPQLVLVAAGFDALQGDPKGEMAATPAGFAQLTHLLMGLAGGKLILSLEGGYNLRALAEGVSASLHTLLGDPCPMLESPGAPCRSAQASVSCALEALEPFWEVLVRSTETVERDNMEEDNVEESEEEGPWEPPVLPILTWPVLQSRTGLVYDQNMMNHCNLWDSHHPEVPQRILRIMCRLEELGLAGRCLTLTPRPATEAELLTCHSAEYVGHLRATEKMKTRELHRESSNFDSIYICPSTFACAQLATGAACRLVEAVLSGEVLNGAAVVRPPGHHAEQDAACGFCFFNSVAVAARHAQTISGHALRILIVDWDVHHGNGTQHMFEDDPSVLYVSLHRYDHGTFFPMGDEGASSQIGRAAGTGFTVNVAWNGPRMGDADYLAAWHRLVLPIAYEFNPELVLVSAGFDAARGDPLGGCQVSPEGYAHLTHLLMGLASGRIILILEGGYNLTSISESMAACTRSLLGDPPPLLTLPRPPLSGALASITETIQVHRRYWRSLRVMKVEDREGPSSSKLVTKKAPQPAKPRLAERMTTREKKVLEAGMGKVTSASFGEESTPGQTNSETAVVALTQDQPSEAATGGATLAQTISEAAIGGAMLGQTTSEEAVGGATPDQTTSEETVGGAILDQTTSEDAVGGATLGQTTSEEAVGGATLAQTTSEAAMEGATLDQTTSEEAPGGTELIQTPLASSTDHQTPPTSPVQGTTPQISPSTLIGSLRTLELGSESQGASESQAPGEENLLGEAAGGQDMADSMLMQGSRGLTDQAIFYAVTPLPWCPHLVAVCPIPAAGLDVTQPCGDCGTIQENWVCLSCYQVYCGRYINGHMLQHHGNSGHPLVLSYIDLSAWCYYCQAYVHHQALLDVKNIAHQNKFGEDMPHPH
UniProt Q9VNB5, whole entry: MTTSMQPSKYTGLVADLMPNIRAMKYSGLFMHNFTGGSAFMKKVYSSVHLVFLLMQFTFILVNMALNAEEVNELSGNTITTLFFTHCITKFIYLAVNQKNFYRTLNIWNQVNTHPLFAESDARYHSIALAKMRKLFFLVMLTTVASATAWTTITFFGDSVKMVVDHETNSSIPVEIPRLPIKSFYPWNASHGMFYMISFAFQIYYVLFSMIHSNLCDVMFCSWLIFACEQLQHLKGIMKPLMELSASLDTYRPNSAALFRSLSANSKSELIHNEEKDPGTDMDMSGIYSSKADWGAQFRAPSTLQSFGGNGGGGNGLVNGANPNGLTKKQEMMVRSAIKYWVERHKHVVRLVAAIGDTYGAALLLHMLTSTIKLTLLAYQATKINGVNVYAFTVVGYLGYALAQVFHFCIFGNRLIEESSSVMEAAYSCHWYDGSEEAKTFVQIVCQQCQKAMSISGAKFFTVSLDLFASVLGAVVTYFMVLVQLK
UniProt P09958, 108-715 limits assumed: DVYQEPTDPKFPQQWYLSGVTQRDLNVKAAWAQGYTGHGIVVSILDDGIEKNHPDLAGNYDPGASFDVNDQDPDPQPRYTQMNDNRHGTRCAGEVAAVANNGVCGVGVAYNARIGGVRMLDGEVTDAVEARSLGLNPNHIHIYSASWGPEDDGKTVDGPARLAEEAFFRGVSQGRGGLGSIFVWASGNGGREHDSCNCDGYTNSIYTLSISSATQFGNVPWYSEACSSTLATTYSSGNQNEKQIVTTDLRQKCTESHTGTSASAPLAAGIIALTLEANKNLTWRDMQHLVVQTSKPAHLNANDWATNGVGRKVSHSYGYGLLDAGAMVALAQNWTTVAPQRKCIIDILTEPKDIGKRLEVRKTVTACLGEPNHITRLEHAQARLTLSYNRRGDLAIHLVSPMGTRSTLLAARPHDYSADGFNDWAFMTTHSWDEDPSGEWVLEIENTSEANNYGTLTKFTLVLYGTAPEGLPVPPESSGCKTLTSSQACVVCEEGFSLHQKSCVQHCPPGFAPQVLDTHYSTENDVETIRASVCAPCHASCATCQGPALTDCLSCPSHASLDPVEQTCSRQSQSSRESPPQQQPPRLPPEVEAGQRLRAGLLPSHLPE
UniProt P09958, whole entry, looked up: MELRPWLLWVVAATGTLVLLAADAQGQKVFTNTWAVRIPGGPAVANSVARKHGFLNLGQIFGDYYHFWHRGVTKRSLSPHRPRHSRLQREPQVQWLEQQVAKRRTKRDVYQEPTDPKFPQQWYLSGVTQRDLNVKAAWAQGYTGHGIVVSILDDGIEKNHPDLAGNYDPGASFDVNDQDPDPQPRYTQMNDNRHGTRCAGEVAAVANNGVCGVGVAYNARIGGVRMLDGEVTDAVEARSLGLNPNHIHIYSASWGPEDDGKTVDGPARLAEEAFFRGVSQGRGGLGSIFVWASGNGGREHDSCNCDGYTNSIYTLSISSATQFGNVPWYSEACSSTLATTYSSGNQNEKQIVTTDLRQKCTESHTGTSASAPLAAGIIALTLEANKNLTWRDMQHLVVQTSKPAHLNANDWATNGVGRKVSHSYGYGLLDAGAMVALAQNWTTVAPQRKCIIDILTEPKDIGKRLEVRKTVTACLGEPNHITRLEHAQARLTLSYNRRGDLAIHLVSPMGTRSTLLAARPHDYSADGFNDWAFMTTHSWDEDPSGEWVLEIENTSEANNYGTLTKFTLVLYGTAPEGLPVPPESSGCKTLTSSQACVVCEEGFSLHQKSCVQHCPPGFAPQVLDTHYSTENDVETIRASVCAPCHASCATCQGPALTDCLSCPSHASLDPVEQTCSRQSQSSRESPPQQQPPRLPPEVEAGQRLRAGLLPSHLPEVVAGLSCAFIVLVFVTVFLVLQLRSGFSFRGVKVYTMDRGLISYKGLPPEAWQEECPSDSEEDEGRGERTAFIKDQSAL
UniProt P42866, whole entry: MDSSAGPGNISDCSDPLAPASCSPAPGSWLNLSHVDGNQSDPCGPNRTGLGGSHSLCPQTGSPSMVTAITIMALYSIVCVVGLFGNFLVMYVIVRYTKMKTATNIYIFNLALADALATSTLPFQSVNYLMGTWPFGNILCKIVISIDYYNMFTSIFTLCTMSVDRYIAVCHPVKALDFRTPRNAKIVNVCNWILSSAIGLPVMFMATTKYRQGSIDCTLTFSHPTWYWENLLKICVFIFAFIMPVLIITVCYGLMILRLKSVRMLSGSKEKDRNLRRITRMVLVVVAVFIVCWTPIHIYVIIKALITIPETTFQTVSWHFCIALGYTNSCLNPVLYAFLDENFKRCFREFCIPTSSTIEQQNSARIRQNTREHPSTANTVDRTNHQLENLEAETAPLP
UniProt P22303, 32-614 limits assumed: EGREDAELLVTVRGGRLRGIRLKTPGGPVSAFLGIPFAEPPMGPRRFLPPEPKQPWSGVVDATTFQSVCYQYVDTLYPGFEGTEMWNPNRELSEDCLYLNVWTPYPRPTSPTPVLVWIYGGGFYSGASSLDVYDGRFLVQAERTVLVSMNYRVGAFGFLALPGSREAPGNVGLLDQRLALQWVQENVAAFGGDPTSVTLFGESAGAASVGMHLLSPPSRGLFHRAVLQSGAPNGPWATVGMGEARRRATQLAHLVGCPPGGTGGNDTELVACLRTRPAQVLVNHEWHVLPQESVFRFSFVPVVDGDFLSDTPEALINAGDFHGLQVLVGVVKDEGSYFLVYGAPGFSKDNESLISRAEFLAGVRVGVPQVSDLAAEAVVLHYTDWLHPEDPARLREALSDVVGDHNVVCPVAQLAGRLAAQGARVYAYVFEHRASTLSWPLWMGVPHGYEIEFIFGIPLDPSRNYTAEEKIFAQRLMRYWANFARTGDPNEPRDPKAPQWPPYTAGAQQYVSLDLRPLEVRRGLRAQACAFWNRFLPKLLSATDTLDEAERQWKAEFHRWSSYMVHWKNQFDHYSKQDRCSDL
UniProt P35869, whole entry, looked up: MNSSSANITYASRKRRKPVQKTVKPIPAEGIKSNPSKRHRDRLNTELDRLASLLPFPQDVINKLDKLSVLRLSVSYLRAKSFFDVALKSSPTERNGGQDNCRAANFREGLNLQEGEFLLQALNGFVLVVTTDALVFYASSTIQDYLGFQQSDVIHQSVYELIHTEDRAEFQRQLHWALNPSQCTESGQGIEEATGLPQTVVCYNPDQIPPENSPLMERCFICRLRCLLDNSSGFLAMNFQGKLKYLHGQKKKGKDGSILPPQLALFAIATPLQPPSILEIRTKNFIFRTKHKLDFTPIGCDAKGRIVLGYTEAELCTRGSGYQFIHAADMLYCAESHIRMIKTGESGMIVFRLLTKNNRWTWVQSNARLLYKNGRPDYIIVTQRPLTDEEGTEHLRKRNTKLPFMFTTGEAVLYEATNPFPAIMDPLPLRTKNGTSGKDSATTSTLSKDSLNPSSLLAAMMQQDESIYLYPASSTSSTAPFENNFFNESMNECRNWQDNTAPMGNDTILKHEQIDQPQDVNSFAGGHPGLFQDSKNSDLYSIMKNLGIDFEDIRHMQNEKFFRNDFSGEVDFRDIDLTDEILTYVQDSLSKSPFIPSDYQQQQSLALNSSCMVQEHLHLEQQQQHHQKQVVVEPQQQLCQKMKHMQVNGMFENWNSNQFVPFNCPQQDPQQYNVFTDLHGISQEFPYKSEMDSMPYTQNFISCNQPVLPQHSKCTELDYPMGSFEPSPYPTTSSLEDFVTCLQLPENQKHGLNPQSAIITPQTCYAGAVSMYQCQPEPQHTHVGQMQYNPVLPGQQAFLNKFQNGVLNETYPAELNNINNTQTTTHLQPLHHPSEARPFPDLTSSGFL
UniProt C7C422, 36-270 M154L/A233V limits assumed: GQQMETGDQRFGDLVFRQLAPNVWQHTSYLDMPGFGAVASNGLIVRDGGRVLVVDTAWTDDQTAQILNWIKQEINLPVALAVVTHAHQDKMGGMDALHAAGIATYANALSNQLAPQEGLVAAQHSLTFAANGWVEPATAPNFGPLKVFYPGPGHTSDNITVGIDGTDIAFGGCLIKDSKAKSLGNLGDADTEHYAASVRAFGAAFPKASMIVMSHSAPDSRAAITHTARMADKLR
UniProt P0A6K3, whole entry: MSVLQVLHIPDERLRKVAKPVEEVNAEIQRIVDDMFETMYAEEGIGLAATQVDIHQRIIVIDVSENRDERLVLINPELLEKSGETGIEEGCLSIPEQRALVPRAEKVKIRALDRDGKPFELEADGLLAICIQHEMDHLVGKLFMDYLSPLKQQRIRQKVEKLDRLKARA
UniProt Q9EP66, whole entry: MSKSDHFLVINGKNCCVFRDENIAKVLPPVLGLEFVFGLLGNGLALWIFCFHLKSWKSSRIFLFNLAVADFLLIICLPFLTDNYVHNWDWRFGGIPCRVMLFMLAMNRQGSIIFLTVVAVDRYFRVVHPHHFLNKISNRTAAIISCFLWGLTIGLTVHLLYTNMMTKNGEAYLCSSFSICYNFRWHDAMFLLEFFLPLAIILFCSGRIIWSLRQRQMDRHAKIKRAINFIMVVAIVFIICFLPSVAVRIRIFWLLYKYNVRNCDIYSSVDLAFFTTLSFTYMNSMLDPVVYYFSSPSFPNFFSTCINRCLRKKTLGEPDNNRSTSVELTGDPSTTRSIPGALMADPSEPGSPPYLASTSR
UniProt P51452, 28-179 limits assumed: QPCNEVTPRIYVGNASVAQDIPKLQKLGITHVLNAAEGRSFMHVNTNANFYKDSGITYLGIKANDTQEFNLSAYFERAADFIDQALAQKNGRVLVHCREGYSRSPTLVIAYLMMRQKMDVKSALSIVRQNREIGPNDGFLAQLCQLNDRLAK

SMILES | target or system | assay | system | setting | scale | endpoint | value
COc1c(Br)cc(Br)cc1CNC(=O)c1ccccc1[N+](=O)[O-] | lasR | thermal stability, differential scanning fluorimetry |  |  |  | melting temperature | 56 °C
O=S(=O)(O)c1ccc(-c2ccc(S(=O)(=O)O)cc2)cc1 | blaOXA-33 | enzyme activity, inhibitor |  |  |  | ligand efficiency | 0.32
NC[C@@H](NC[C@@H]1CCCN1C[C@@H](CO)NC[C@@H](NCCC12CC3CC(CC(C3)C1)C2)c1ccccc1)c1ccccc1 | Acinetobacter baumannii | bacterial growth |  | 8 µM, fold shift of IC90, with: amikacin |  | potentiation of amikacin | 1 fold
CCN(CCNc1ccc(C)c2sc3ccccc3c(=O)c12)CC(C)(C)O | Bcl-2-related protein A1 (Mus musculus, UniProt Q07440, C113S/P104K) | binding, inhibitor, fluorescence polarization competition |  | 100 µM, overnight, 20 °C, with: FITC-Noxa peptide 375 nM | relative to: peptide without protein | Noxa peptide bound | 101%
CC(=O)NCCCC[C@H](NC(=O)CNC(=O)[C@H](CCCNC(=N)N)NC(C)=O)C(=O)N[C@@H](Cc1c[nH]c2ccccc12)C(N)=O | HDAC6 | deacetylation, substrate |  | 25 °C, with: 10 to 50 nM enzyme |  | kcat | 0.25 ± 0.04 s⁻¹
COC(=O)[C@@]1(C)C=C(C(=O)Nc2ccc(C)c(C(=O)Nc3ccc(Nc4nccc(-c5cccnc5)n4)cc3)c2)C(=O)CC1 | MAPK8 | kinase activity, inhibitor |  | 0.006774 µM, unit not given, with: 10 mM GSH | relative to: DMSO | remaining activity | 0.6
O=C(NCc1cc(Br)cc(Br)c1OC(=O)c1ccccc1[N+](=O)[O-])c1ccccc1Cl | lasR | reporter gene, agonist | Escherichia coli JLD271 lasI-lacZ reporter |  | relative to: OdDHL | maximum efficacy | 101%
O=C(NC1CCN(c2ncnc3c2nc(-c2ccccc2Cl)n3-c2ccc(Cl)cc2)CC1)C1CCCC1 | CNR1 (Homo sapiens, UniProt P21554) | calcium mobilization, antagonist, FLIPR | CHO-K1 with Gαq16 | with: CP55940 |  | Ke | 0.9 nM
CO[P@@]1(=O)OC[C@H]2COC(=O)C2=C(C)O1 (relative stereo) | ACHE (Homo sapiens, UniProt P22303) | enzyme activity, inhibitor, reactivity constant |  |  |  | k2 | 0.9 ± 0.5 min⁻¹
COC(=O)C(CC(=O)c1ccc(Cl)cc1)SCCNC(=O)CCNC(=O)[C@H](O)C(C)(C)COP(=O)(O)OP(=O)(O)OC[C@H]1O[C@@H](n2cnc3c(N)ncnc32)[C@H](O)[C@@H]1OP(=O)(O)O (stereo partly shown) | 1,4-dihydroxy-2-naphthoyl-CoA synthase (menB, Staphylococcus aureus, UniProt Q5HH38) | isothermal titration calorimetry |  |  | relative to: CoA binding | ΔΔG | 1.3 kcal/mol
CC(C)c1ccc(NC(=O)CSc2nnc(-c3ccncc3)n2C2CC2)cc1 | Orco | calcium mobilization, agonist | HEK293 expressing Drosophila Orco |  | relative to: VUAA1 | efficacy | 162%
CC(=O)NCCCC[C@H](NC(=O)[C@H](CCCCNC(C)=O)NC(=O)[C@H](Cc1c[nH]cn1)NC(=O)[C@H](CCCNC(=N)N)NC(C)=O)C(N)=O | HDAC6 | deacetylation, substrate |  | 25 °C, with: 10 to 50 nM enzyme |  | kcat/KM | 620 ± 180 M⁻¹ s⁻¹
Cc1nc2c[nH]c(/C=C/C=C/c3ccc(N(C)C)cc3)cn-2c1=O | TAR DNA-binding protein 43, oligomeric (TARDBP, Homo sapiens, UniProt Q13148) | oligomer detection |  |  | relative to: ThT | signal enhancement relative to ThT | 16.5 ± 3.4
CC(=O)N[C@@H](CCCNC(=N)N)C(=O)N[C@H](C(=O)N[C@@H](CCCNC(=N)N)C(=O)N[C@@H](CCCNC(=N)N)C(=O)Nc1ccc2c(C)cc(=O)oc2c1)C(C)C | FURIN | substrate |  |  | relative to: with KCl over without KCl | kcat/Km ratio | 0.3
COC(=O)[C@@]1(C)C=C(C(=O)Nc2cc(C(=O)Nc3ccc(Nc4nccc(-c5cccnc5)n4)cc3)ccc2C)C(=O)CC1 | MAPK8 | kinase activity, inhibitor |  | 44.44 µM, unit not given, with: 10 mM GSH | relative to: DMSO | remaining activity | 0.015
O=C(NC1CCN(c2ncnc3[nH]cnc23)CC1)c1cccc(S(=O)(=O)Nc2ccc(Cl)cc2)c1 | A549-ACE2 |  |  | 0.09145 µM |  | viability | 108%
NC[C@@H](NC[C@@H]1CCCN1C[C@@H](CO)NC[C@@H](NCCc1ccc(-c2ccccc2)cc1)c1ccccc1)c1ccccc1 | Klebsiella pneumoniae | bacterial growth |  | compound alone |  | IC90 | > 24 µM
CCn1c(SCC(=O)Nc2ccc(C(C)(C)C)cc2)nnc1-c1cccnc1 | Orco | calcium mobilization, agonist | HEK293 stably expressing Orco |  | relative to: VUAA1 | maximal efficacy | 42%
COc1cccc(C(=O)c2n[nH]c3ccccc23)c1 | AHR (Homo sapiens, UniProt P35869) | reporter gene, agonist |  |  | relative to: ITE | Emax | 87 ± 6%
O=C(Oc1c(Br)cc(Br)cc1CNC(=O)c1ccccc1[N+](=O)[O-])c1ccccc1Cl | lasR | reporter gene, agonist | Escherichia coli JLD271 lasI-lacZ reporter |  | relative to: OdDHL | maximum efficacy | 98%

SMILES | target or system | assay | system | setting | scale | endpoint | value
COc1ccc2c(c1)c(CC(=O)NCCCCNC(=O)CCC(=O)OC1c3cc4c(cc3C(c3cc(OC)c(OC)c(OC)c3)C3C(=O)OCC13)OCO4)c(C)n2C(=O)c1ccc(Cl)cc1 (stereo not shown) | Ptgs2 (Mus musculus, UniProt Q05769, V509I) | enzyme activity, inhibitor |  |  | relative to: mutant V523I over wild type | potency decrease | 3.8 fold
C[C@@H]1CN(C)CCN1c1nc(-c2ccc(F)cc2)cs1 | SLC6A4 (Homo sapiens, UniProt P31645) | 5-HT-induced current, whole-cell patch clamp |  | half-maximal inhibitory concentration |  | binding equilibration half-time | < 7 min
COC(=O)[C@@H](CS)N1C(=O)c2ccc(N(C)C)cc2C1=O | blaNDM-1 (Klebsiella pneumoniae, UniProt C7C422, A233V/M154L) | probe |  | 10 µM, NDM-15 variant, probe:enzyme 1:3, with: ZnSO4 50 µM | relative to: probe alone | fluorescence increase | 17.8 fold
Nc1nnc(SSc2nnc(N)s2)s1 | Peptide deformylase (def, Escherichia coli, UniProt P0A6K3) | binding |  |  |  | isomerization share of ΔG | > 40%
COc1cc(C(=O)N[C@@H]2CC[C@@]3(O)[C@H]4Cc5ccc(O)c6c5[C@@]3(CCN4CC3CC3)[C@H]2O6)ccn1 | Oprk1 (Mus musculus, UniProt P33534) | radioligand binding | CHO cell membranes | with: [3H]diprenorphine | relative to: Ki mu receptor over Ki kappa receptor | selectivity ratio | 1.3
C#CCN1CC[C@]23c4c5ccc(O)c4O[C@H]2[C@H](NC(=O)c2ccc(N=[N+]=[N-])c([125I])c2)CC[C@@]3(O)[C@H]1C5 | Oprm1 | binding | CHO cell membranes | 0.1 nM, 25 °C, with: levallorphan 10 µM |  | rapidly dissociating fraction | 53%
NCCNCCSc1ccccc1 |  |  | Swiss Albino mouse, female | oral, 400 mg/kg, single dose, non-compartmental |  | lag time (Tlag) | 0 min
CC(=O)NCCCC[C@H](NC(C)=O)C(=O)N[C@@H](Cc1c[nH]c2ccccc12)C(N)=O | HDAC6 | deacetylation, substrate |  | 25 °C, with: 10 to 50 nM enzyme |  | kcat | 0.19 ± 0.02 s⁻¹
CCn1c(SCC(=O)Nc2ccc(C(C)C)cc2)nnc1-c1ccnc(F)c1 | Orco | calcium mobilization, agonist | HEK293 expressing Drosophila Orco |  | relative to: VUAA1 | efficacy | 148%
O=C(NCc1cc(Br)cc(Br)c1OC(=O)c1ccccc1[N+](=O)[O-])c1ccccc1[N+](=O)[O-] | lasR | thermal stability, differential scanning fluorimetry |  |  |  | melting temperature | 69.3 ± 0.3 °C
O=S(=O)(O)c1ccc2c(c1)Cc1cc(S(=O)(=O)O)ccc1-2 | blaOXA-33 | enzyme activity, inhibitor |  |  |  | ligand efficiency | 0.29
CC[C@H](C)[C@H](NC(=O)[C@H](C)NC(=O)[C@H](CCC(=O)O)NC(=O)[C@H](CCCNC(=N)N)NC(=O)[C@H](CCCNC(=N)N)NC(=O)[C@@H](NC(=O)[C@H](CCCNC(=N)N)NC(=O)[C@H](CCCNC(=N)N)NC(=O)CNC(=O)c1ccccc1N)[C@@H](C)O)C(=O)N[C@H](C(=O)N[C@@H](CCC(N)=O)C(=O)NCCNc1ccc([N+](=O)[O-])cc1[N+](=O)[O-])C(C)C | FURIN | substrate |  | pH 7 |  | Km | 0.21 µM
CC1(C)SCN(C(=O)[C@@H](O)[C@H](Cc2ccccc2)NC(=O)COc2ccccc2)[C@@H]1C(=O)N[C@H]1c2ccccc2C[C@H]1O | Gag-Pol polyprotein, protease (gag-pol, Human immunodeficiency virus type 1 group M subtype B, UniProt P04585, L521I/L551I/Q495K) | isothermal titration calorimetry |  | concentration not given, pH 5.0, 25 °C, 2% DMSO |  | ΔH of binding | -4.49 ± 0.182 kcal/mol
CC1(C)Oc2cc(C(=O)c3csc4ccccc34)cc(O)c2[C@@H]2C[C@H](O)CC[C@H]21 | Cnr2 (Mus musculus, UniProt P47936) | covalent photolabelling, UV photolabelling, then [3H]CP-55,940 saturation binding | HEK293 cell membranes | 10 x Ki, 30 min incubation, 1 h irradiation, 37 °C, UV 365 nm | relative to: control | Bmax reduction | 67%
O=C(N[C@H]1CCCC[C@@H]1O)C1CN(Cc2ccc(-n3cccn3)cc2)c2ccccc2O1 (stereo partly shown) | CHRM1 (Homo sapiens, UniProt P11229) | calcium mobilization, positive allosteric modulator | high-expression cell line | with: acetylcholine EC20 | relative to: acetylcholine max | efficacy | 77 ± 7%
COc1ccc(CN[C@@H]2CO[C@H](C(c3ccccc3)c3ccccc3)C[C@H]2O)cc1 | ADRA2A (Homo sapiens, UniProt P08913) | radioligand binding |  | 10 µM, with: [3H]clonidine |  | inhibition | 45.8%
CC(=O)Oc1c(Br)cc(Br)cc1CNC(=O)c1ccccc1[N+](=O)[O-] | lasR | reporter gene, agonist | Escherichia coli JLD271 lasI-lacZ reporter |  | relative to: OdDHL | maximum efficacy | 96%
C=CCN1CC[C@]23c4c5ccc(O)c4O[C@H]2[C@H](NC(=O)c2ccc(N=[N+]=[N-])c([125I])c2)CC[C@@]3(O)[C@H]1C5 | Oprm1 | binding | CHO cell membranes | 0.1 nM, 25 °C |  | very slowly dissociating fraction | 47%
C1c2c(-c3nnn[nH]3)n[nH]c2[C@@H]2C[C@H]12 | Hcar2 (Mus musculus, UniProt Q9EP66) | cAMP level, agonist, GloSensor | cells expressing wild-type mouse receptor |  |  | Emax | ~55%
CC(=O)N[C@@H](Cc1c[nH]cn1)C(=O)N[C@H](C(=O)NCC(=O)N[C@@H](Cc1ccccc1)C(=O)N[C@@H](CC(C)C)C(=O)N[C@H](C(=O)N[C@@H](CCC(=O)O)C(=O)N[C@@H](Cc1cc(=O)oc2cc(OP(=O)(O)O)ccc12)C(=O)N[C@H](C(=O)N[C@@H](C)C(=O)N[C@H](C(=O)N[C@@H](CCCNC(=N)N)C(=O)N[C@@H](Cc1c[nH]c2ccccc12)C(N)=O)[C@@H](C)O)C(C)C)[C@@H](C)OP(=O)(O)O)[C@@H](C)O | DUSP3 (Homo sapiens, UniProt P51452) | substrate |  | pH 6, ERK1/2 activation-loop peptide |  | kcat | 0.26 s⁻¹

A few entries again:
SMILES | target or system | assay | system | setting | scale | endpoint | value
NC[C@@H](NC[C@@H]1CCCN1C[C@@H](CO)NC[C@@H](NCCC12CC3CC(CC(C3)C1)C2)c1ccccc1)c1ccccc1 | Acinetobacter baumannii | bacterial growth |  | 8 µM, fold shift of IC90, with: amikacin |  | potentiation of amikacin | 1 fold
CCN(CCNc1ccc(C)c2sc3ccccc3c(=O)c12)CC(C)(C)O | Bcl-2-related protein A1 (Mus musculus, UniProt Q07440, C113S/P104K) | binding, inhibitor, fluorescence polarization competition |  | 100 µM, overnight, 20 °C, with: FITC-Noxa peptide 375 nM | relative to: peptide without protein | Noxa peptide bound | 101%
CC(=O)NCCCC[C@H](NC(=O)CNC(=O)[C@H](CCCNC(=N)N)NC(C)=O)C(=O)N[C@@H](Cc1c[nH]c2ccccc12)C(N)=O | HDAC6 | deacetylation, substrate |  | 25 °C, with: 10 to 50 nM enzyme |  | kcat | 0.25 ± 0.04 s⁻¹
COC(=O)[C@@]1(C)C=C(C(=O)Nc2ccc(C)c(C(=O)Nc3ccc(Nc4nccc(-c5cccnc5)n4)cc3)c2)C(=O)CC1 | MAPK8 | kinase activity, inhibitor |  | 0.006774 µM, unit not given, with: 10 mM GSH | relative to: DMSO | remaining activity | 0.6
